# Measurements gathered from unrelated publications.
# Each line is one published result; not all experiments were run side by side. “And” joins repeats or separate records; there may be more than shown. Numbers after ± are the reported error.
SMILES,assay,test system,conditions,tissue uptake
Cc1n[nH]c(C)c1CCCOc1cc(C(=O)NCCCCC(NC(=O)CN2CCN(CC(=O)[O-])CCN(CC(=O)[O-])CCN(CC(=O)[O-])CC2)C(=O)NCC2CCC(C(=O)NC(Cc3ccc4ccccc4c3)C(=O)NCCCCC(NC(=O)NC(CCC(=O)O)C(=O)O)C(=O)O)CC2)ccc1F.[68Ga+3] (stereo not drawn),PET/CT,"mouse 22Rv1 xenograft, salivary gland",1 h,2.5 ± 0.65 %ID/g
N#C[C@@H]1CC(F)(F)CN1C(=O)CNC(=O)c1ccnc2c(NC(=O)CCOCCOCCOCCOCCOCCOCCNC(=O)[C@H](CCCCNC(=O)CN3CCN(CC(=O)[O-])CCN(CC(=O)[O-])CCN(CC(=O)[O-])CC3)NC(=O)CCCc3ccc(I)cc3)cccc12.[177Lu+3],,"mouse, U-87 MG tumour xenograft, spleen",48 h,0.4 ± 0.2 %ID/g
COc1ccc(Nc2nc(Nc3ccc(OCCOCC[18F])cc3)ncc2Br)cc1,,"ICR mouse, S180 sarcoma-bearing, blood","intravenous, 370 kBq in 100 µL, 15 min",4.36 ± 0.62 %ID/g
CN(Cc1ccccc1)C(=O)CN1CCN(CC(=O)[O-])CCN(CC(=O)N(C)Cc2ccccc2)CC1.[44Sc+3],,"BALB/c mouse, large intestine","intravenous, 1 h",0.26 ± 0.04 %ID/g
O=C([O-])CN1CCN(CC(=O)[O-])CCN(CC(=O)NCC2CCC(C(=O)NC(Cc3ccc4ccccc4c3)C(=O)NCCCCC(NC(=O)NC(CCC(=O)O)C(=O)O)C(=O)O)CC2)CCN(CC(=O)[O-])CC1.[68Ga+3] (stereo not drawn),PET/CT,"mouse 22Rv1 xenograft, kidney",1 h,24.4 ± 12.3 %ID/g
O=C([O-])CN1CCN(CC(=O)[O-])CCN(Cc2cccc(C(=O)[O-])n2)CC1.[44Sc+3],,"BALB/c mouse, large intestine","intravenous, 1 h",0.2 ± 0.05 %ID/g
O=C(O)CCCOc1ccc([18F])cc1-c1cc(-c2ccccc2C(F)(F)F)n(-c2ccccc2)n1,,"mouse, bladder","intravenous, dose not given, 30 min",0.02 ± 0.01 %ID/g
CC[C@H](C)[C@H](NC(=O)C[C@H](NC(=O)CN1CCN2CCN(CC1)CC(=O)[O][Al]([18F])[O]C(=O)C2)C(=O)O)C(=O)N[C@H]1CCc2cccc3c2N(C1=O)[C@H](C(=O)NCc1cn[nH]n1)C3,,"C57BL/6J mouse, MC-38 tumour, blood","30 min post injection, PBS treated",1.69 ± 0.25 %ID/g
COc1cccc(OC)c1-c1cc(C(=O)NC2(C(=O)O)C3CC4CC(C3)CC2C4)nn1-c1ccc(C(=O)N(C)CCCN(C)CCCN(C)C(=O)[C@H](CCCCNC(=O)[C@H](CC(C)C)NC(=O)C2OC2C(=O)O)NC(=O)CN2CCN(CC(=O)[O-])CCN(CC(=O)[O-])CCN(CC(=O)[O-])CC2)cc1C(C)C.[177Lu+3] (mixture of isomers),,"mouse, HT-29 xenograft, liver",168 h post injection,0.79 %ID/g
COc1ccc(Nc2nc(Nc3ccc(OCCOCCOCC[18F])cc3)ncc2Br)cc1,,"ICR mouse, S180 sarcoma-bearing, blood","intravenous, 370 kBq in 100 µL, 30 min",2.41 ± 0.15 %ID/g
CN(Cc1ccccc1)C(=O)CN1CCN(CC(=O)[O-])CCN(Cc2cccc(C(=O)[O-])n2)CC1.[44Sc+3],,"BALB/c mouse, small intestine","intravenous, 1 h",2.28 ± 0.44 %ID/g
COc1cccc(OC)c1-c1cc(C(=O)NC2(C(=O)O)C3CC4CC(C3)CC2C4)nn1-c1ccc(C(=O)N(C)CCOCCOCCN(C)C(=O)[C@H](CCCCNC(=O)[C@H](CC(C)C)NC(=O)C2OC2C(=O)O)NC(=O)CN2CCN(CC(=O)[O-])CCN(CC(=O)[O-])CCN(CC(=O)[O-])CC2)cc1C(C)C.[177Lu+3] (mixture of isomers),,"mouse HT-29 xenograft, large intestine","72 h post injection, biodistribution",0.072 %ID/g
CCCC[C@H](NC(=O)CNC(=O)CNC(=O)[C@H](CCCCNC(=O)[C@H](CC(=O)O)NC(=O)C(C)c1ccc(CC(C)C)cc1)NC(=O)CN1CCN(CC(=O)O)CCN(CC(=O)O)CCN(CC(=O)O)CC1)C(=O)N[C@H]1CC(=O)NCCCC[C@@H](C(N)=O)NC(=O)[C@H](Cc2c[nH]c3ccccc23)NC(=O)[C@H](CCCNC(=N)N)NC(=O)[C@@H](Cc2ccccc2)NC(=O)[C@H](Cc2c[nH]cn2)NC1=O (stereo partly drawn) [lutetium-177 labelled],,"C57 mouse, kidneys","intravenous, 2 h, added: 10 µg NDP-MSH co-injection",12.5 ± 0.96 %ID/g
COc1ccc2c(c1)C(C)(C)C(/C=C/C1=C(Oc3ccc(C(=O)NCCCCOc4cc(CN(Cc5ccccn5)Cc5ccccn5)cc(CN(Cc5ccccn5)Cc5ccccn5)c4)cc3)C(=C/C=C3/N(CCCCS(=O)(=O)[O-])c4ccc(OC)cc4C3(C)C)CCC1)=[N+]2CCCCS(=O)(=O)[O-].O=[N+]([O-])[O-].O=[N+]([O-])[O-].[99Tc+].[C-]#[O+].[C-]#[O+].[C-]#[O+].[Zn+2],,"BALB/c mouse, Staphylococcus aureus myositis, brain",12 h,0.03 %ID/g and 0.02 %ID/g
COc1cccc(OC)c1-c1cc(C(=O)NC2(C(=O)O)C3CC4CC(C3)CC2C4)nn1-c1ccc(C(=O)N(C)CCOCCN(C)C(=O)[C@H](CCCCNC(=O)[C@H](CC(C)C)NC(=O)C2OC2C(=O)O)NC(=O)CN2CCN(CC(=O)[O-])CCN(CC(=O)[O-])CCN(CC(=O)[O-])CC2)cc1C(C)C.[177Lu+3] (mixture of isomers),,"mouse HT-29 xenograft, small intestine","168 h post injection, biodistribution",0.09 %ID/g
O=C([O-])CN1CCN(CC(=O)O)CCN(CC(=O)[O-])CCN(CC(=O)NCC2CCC(C(=O)NC(Cc3ccc4ccccc4c3)C(=O)NCCCCC(NC(=O)NC(CCC(=O)O)C(=O)O)C(=O)O)CC2)CC1.[212Pb+2] (stereo not drawn),measured: 212Pb,"athymic mouse, C4-2 prostate xenograft, prostate","intravenous, 2 h",2.49 ± 1.39 %ID/g
CN(Cc1ccccc1)C(=O)CN1CCN(CC(=O)N(C)Cc2ccccc2)CCN(Cc2cccc(C(=O)[O-])n2)CC1.[44Sc+3],,"BALB/c mouse, large intestine","intravenous, 1 h",1.53 ± 0.66 %ID/g
[11CH3]N1CCC(NC(=O)c2cc(-c3c(O)cc(O)cc3Oc3ccc([N+](=O)[O-])cc3)on2)CC1,,"NMRI mouse, healthy, kidneys","intravenous, 5.5 MBq, 2 min",14.4 ± 0.6 %ID
CN(Cc1ccccc1)C(=O)CN1CCN(CC(=O)[O-])CCN(CC(=O)[O-])CC1.[44Sc+3],,"BALB/c mouse, large intestine","intravenous, 1 h",0.31 ± 0.06 %ID/g
N#C[C@@H]1CC(F)(F)CN1C(=O)CNC(=O)c1ccnc2c(NC(=O)[C@H](CCCCNC(=O)CCOCCOCCOCCOCCOCCOCCNC(=O)CN3CCN(CC(=O)[O-])CCN(CC(=O)[O-])CCN(CC(=O)[O-])CC3)NC(=O)CCCc3ccc(I)cc3)cccc12.[177Lu+3],,"mouse, U-87 MG tumour xenograft, lung",4 h,5.22 ± 1.51 %ID/g
COc1cccc(OC)c1-c1cc(C(=O)NC2(C(=O)O)C3CC4CC(C3)CC2C4)nn1-c1ccc(C(=O)N(C)CCCN(C)C(=O)[C@H](CCCCNC(=O)[C@H](CC(C)C)NC(=O)C2OC2C(=O)O)NC(=O)CN2CCN(CC(=O)[O-])CCN(CC(=O)[O-])CCN(CC(=O)[O-])CC2)cc1C(C)C.[177Lu+3] (mixture of isomers),,"mouse, HT-29 xenograft, heart",4 h post injection,0.47 %ID/g

# Excerpt of the above:
SMILES,assay,test system,conditions,tissue uptake
COc1cccc(OC)c1-c1cc(C(=O)NC2(C(=O)O)C3CC4CC(C3)CC2C4)nn1-c1ccc(C(=O)N(C)CCOCCN(C)C(=O)[C@H](CCCCNC(=O)[C@H](CC(C)C)NC(=O)C2OC2C(=O)O)NC(=O)CN2CCN(CC(=O)[O-])CCN(CC(=O)[O-])CCN(CC(=O)[O-])CC2)cc1C(C)C.[177Lu+3] (mixture of isomers),,"mouse HT-29 xenograft, small intestine","168 h post injection, biodistribution",0.09 %ID/g
CCCC[C@H](NC(=O)CNC(=O)CNC(=O)[C@H](CCCCNC(=O)[C@H](CC(=O)O)NC(=O)C(C)c1ccc(CC(C)C)cc1)NC(=O)CN1CCN(CC(=O)O)CCN(CC(=O)O)CCN(CC(=O)O)CC1)C(=O)N[C@H]1CC(=O)NCCCC[C@@H](C(N)=O)NC(=O)[C@H](Cc2c[nH]c3ccccc23)NC(=O)[C@H](CCCNC(=N)N)NC(=O)[C@@H](Cc2ccccc2)NC(=O)[C@H](Cc2c[nH]cn2)NC1=O (stereo partly drawn) [lutetium-177 labelled],,"C57 mouse, kidneys","intravenous, 2 h, added: 10 µg NDP-MSH co-injection",12.5 ± 0.96 %ID/g
